Assay results collected from several papers.
Each line is one published result; not all experiments were run side by side. Several values in a cell are separate wells, animals, samples, runs or records. ± gives the spread as reported.

`CC(C)CC(O)(CC(C)C)c1cn(C(=O)N2CCCC2)nn1` has a protein level of 1.06 and 1.13 (mouse T-cells; SILAC proteomics, item: Fbxo7; 1 nM, 6 h, single peptides, unit not given; reference: DMSO).
With `C#CCN1C(=O)C(CC#C)(C(=O)OCC)Oc2ccccc21` (stereo not drawn) the inhibition was 0% (L02; cell growth or viability, CCK-8; 1.56 µM, 72 h).
For `N#Cc1cccc(-c2ccc(=O)n(Cc3cccc(-c4ncc(OCC5CCN(CC(=O)N6CCN(c7ccc8c(c7)C(=O)N(C7CCC(=O)NC7=O)C8=O)CC6)CC5)cn4)c3)n2)c1` (stereo not drawn), “protein level fold change” read -2.81 (EBC-1; label-free proteomics, item: PLEK2; concentration not given; reference: control).
With `O=C1NC2(CC2)COc2ncc(F)cc2[C@H]2COCCN2c2ccn3ncc1c3n2` the neutrophils was 19 ± 9% (Sprague-Dawley rat, male, blood; oral, 5 mg/kg/day, end of treatment, 4-week repeated-dose toxicity; reference: leukocytes).
`Cc1cc(Oc2nc(N3CC[C@@H](c4ccncc4)C3)ncc2F)[nH]n1` gave an IC50 of > 100 µM (SNB-75; cell proliferation; brain cancer).
With `COc1ccccc1-c1ccncc1C(=O)Nc1nnc(OCc2ccc(Cl)cc2)s1` the colony survival was 93.2% (DLD-1 BRCA2-/-; 0.06 µM, mean of 3 replicates; reference: untreated).
`CC[C@H](C)[C@H](NC(=O)CNC(=O)[C@H](CC(=O)O)NC(=O)[C@H](CO)NC(=O)[C@@H](N)Cc1c[nH]cn1)C(=O)N[C@@H](Cc1ccccc1)C(=O)N[C@H](C(=O)N[C@@H](CC(=O)O)C(=O)N[C@@H](CO)C(=O)N[C@@H](Cc1ccc(O)cc1)C(=O)N[C@@H](CO)C(=O)N[C@@H](CCCNC(=N)N)C(=O)N[C@@H](Cc1ccc(O)cc1)C(=O)N[C@@H](CCCNC(=N)N)C(=O)N[C@@H](CCCCN)C(=O)N[C@@H](CCC(N)=O)C(=O)N[C@@H](CCSC)C(=O)N[C@@H](C)C(=O)N[C@H](C(=O)N[C@@H](CCCCN)C(=O)N[C@@H](CCCCN)C(=O)N[C@@H](Cc1ccc(O)cc1)C(=O)N[C@@H](CC(C)C)C(=O)N[C@@H](C)C(=O)N[C@@H](C)C(=O)N[C@H](C(=O)N[C@@H](CC(C)C)C(=O)NCC(=O)N[C@@H](CCCCN)C(=O)N[C@@H](CCCNC(=N)N)C(=O)N[C@@H](Cc1ccc(O)cc1)C(=O)N[C@@H](CCCCN)C(=O)N[C@@H](CCC(N)=O)C(=O)N[C@@H](CCCNC(=N)N)C(=O)N[C@H](C(=O)N[C@@H](CCCCN)C(=O)N[C@@H](CC(N)=O)C(=O)N[C@@H](CCCCN)C(N)=O)C(C)C)C(C)C)C(C)C)[C@@H](C)O` has an EC50 of 0.01 µM (BON; cell growth, MTT; 20 h).
With `CC(C)=CCc1c(O)cc2c(c1O)C(=O)CC(c1ccc(O)cc1)O2` (stereo not drawn) the inhibition was 23.4% (HeLa; cell growth or viability, MTT; 12.5 µM, 48 h).
`O=C(O)c1ccc(-c2nc(-c3ccccc3Cl)c3sccn23)cc1`: “CD61 fluorescence intensity” 1.07 fold change and 1.03 fold change (K562; megakaryocyte differentiation, flow cytometry; 0.01 mM, 72 h; reference: untreated).
`C=CCN1C(=O)C(CC=C)(C(=O)OCC)Oc2cc(F)ccc21` (stereo not drawn) gave an inhibition of 0.23% (HaCaT; cell growth or viability, CCK-8; 1.56 µM, 72 h).
With `O=C(N[C@H](Cc1ccccc1)C(=O)N[C@H](Cc1ccccc1)C(=O)N[C@@H](Cc1ccc(OP(=O)(O)O)cc1)C(=O)O)OCC1c2ccccc2-c2ccccc21` the low-TMRM cells was 8% (MCF7; mitochondrial membrane potential, flow cytometry; 10 µM, 48 h).
`O=C(C[Se]C(=O)c1ccco1)Nc1cccc(C(F)(F)F)c1` gave a GI50 of 2250 nM (NCI60 CNS cancer panel; five-dose screen).
The selectivity ratio of `CC(=O)NCSC[C@H](NC(=O)[C@@H]1CCCN1C(=O)[C@H](C)NC(=O)[C@@H](NC(=O)CNC(=O)[C@@H](NC(=O)[C@H](Cc1c[nH]c2ccccc12)NC(=O)[C@H](C)NC(=O)CNC(=O)[C@H](CO)NC(=O)[C@H](C)NC(=O)[C@@H]1CCCN1C(=O)[C@H](Cc1c[nH]c2ccccc12)NC(=O)[C@H](C)NC(=O)[C@H](C)NC(=O)[C@@H](N)Cc1ccc(O)cc1)[C@@H](C)O)[C@@H](C)O)C(=O)N[C@@H](CO)C(=O)N[C@@H](C)C(=O)NCC(=O)N[C@H](C(=O)NCCOCCOCCOCCOCCOCCOCCOCCOCCOCCOCCOCCOCCC(=O)N[C@@H](CS)C(N)=O)[C@@H](C)O` is reported as 8.6 ± 4.1 (H1819; phage binding; 10 min, 37 °C; reference: control phage).
With `CCOC(=O)C1(Cc2ccccc2)Oc2cc(F)ccc2N(Cc2ccccc2)C1=O` (stereo not drawn) the inhibition was 0.34% (L02; cell growth or viability, CCK-8; 12.5 µM, 72 h).
For `CC(C)(C)C(=O)OCOP(=O)(OCOC(=O)C(C)(C)C)C1CCCN(O)C1=O` (stereo not drawn), the Log10LC50 was > -4 log M (CCRF-CEM).
For `CC(C)[C@H](NC(=O)[C@H](CCCNC(=N)N)NC(=O)[C@@H]1CCCN1C(=O)[C@@H](NC(=O)[C@H](C)NC(=O)[C@H](Cc1ccc(O)cc1)NC(=O)[C@H](CCC(N)=O)NC(=O)[C@H](CCCCN)NC(=O)[C@H](CCCNC(=N)N)NC(=O)[C@@H]1CCCN1C(=O)[C@H](CCC(=O)O)NC(=O)[C@@H](NC(=O)[C@H](C)N)[C@@H](C)O)[C@@H](C)O)C(=O)N[C@@H](Cc1ccccc1)C(=O)N[C@@H](Cc1c[nH]c2ccccc12)C(=O)N[C@H](C(=O)N[C@@H](CC(=O)O)C(=O)N[C@@H](C)C(=O)N1CCC[C@H]1C(=O)NCC(=O)NCCOCCOCCOCCOCCOCCOCCOCCOCCOCCOCCOCCOCCC(=O)N[C@@H](CS)C(N)=O)[C@@H](C)O`, the selectivity ratio was 32 ± 10 (H1993; phage binding; 10 min, 37 °C; reference: control phage).
The EC50 of `C#CCNC(=O)c1ccc(S(=O)(=O)N[C@@H](CCCCNC(C)=S)C(=O)N[C@@H](CCCNC(=N)N)C(=O)N[C@@H](CC2CCCCC2)C(=O)N[C@H](CCCCN)C(=O)N[C@@H](CC2CCCCC2)C(N)=O)cc1` is reported as 55.5 µM (HEK-293T; cell growth or viability, MTT; 72 h).
The phospho-c-Raf level of `CC[C@H](C)[C@H](NC(=O)CNC(=O)[C@H](Cc1ccc(O)cc1)NC(=O)[C@H](CO)NC(=O)[C@H](Cc1ccc(O)cc1)NC(=O)[C@@H](NC(=O)[C@H](CC(=O)O)NC(=O)[C@H](CO)NC(=O)[C@H](CCC(N)=O)NC(=O)[C@H](Cc1ccccc1)NC(=O)[C@H](CO)NC(=O)[C@H](Cc1ccccc1)NC(=O)[C@@H]1CCCN1C(=O)[C@H](CC(N)=O)NC(=O)[C@H](CC(N)=O)NC(=O)[C@H](CC(=O)O)NC(=O)[C@H](CCC(N)=O)NC(=O)[C@@H]1CCCN1C(=O)[C@H](CCCNC(=N)N)NC(=O)[C@H](CCCNC(=N)N)NC(=O)[C@H](CCCNC(=N)N)NC(=O)[C@H](CCC(N)=O)NC(=O)[C@H](CCCNC(=N)N)NC(=O)[C@H](CCCNC(=N)N)NC(=O)[C@H](CCCCN)NC(=O)[C@H](CCCCN)NC(=O)[C@H](CCCNC(=N)N)NC(=O)CN)C(C)C)C(=O)N[C@H](C(=O)N[C@@H](CC(C)C)C(N)=O)C(C)C` is reported as 0.404 and 0.415 (MCF7; immunoblot densitometry, item: phospho-c-Raf Ser338; 10 µM, 48 h, unit not given; reference: 0 µM).
`NC(=S)N/N=C/c1ccc(OCc2cccc(F)c2)cc1`: “catalase activity (OD450)” 0.129 a.u. (IMR-32; 100 µg/mL, 24 h; higher = more activity).
`CSCC[C@H](NC(=O)[C@@H](NC(=O)[C@H](CCC(N)=O)NC(=O)[C@H](CO)NC(=O)[C@@H](N)C(C)C)[C@@H](C)O)C(=O)N[C@@H](CCCNC(=N)N)C(=O)N[C@@H](CCC(N)=O)C(=O)N[C@H](C(=O)N[C@@H](C)C(=O)N[C@H](C(=O)N1CCC[C@H]1C(=O)N[C@@H](CC(C)C)C(=O)N[C@@H](CC(C)C)C(=O)N[C@@H](Cc1c[nH]c2ccccc12)C(=O)N[C@@H](Cc1ccccc1)C(=O)N[C@@H](Cc1c[nH]c2ccccc12)C(=O)N[C@H](C(=O)NCC(=O)N[C@@H](CO)C(=O)N[C@@H](CC(C)C)C(=O)NCCOCCOCCOCCOCCOCCOCCOCCOCCOCCOCCOCCOCCC(=O)N[C@@H](CS)C(N)=O)[C@@H](C)O)C(C)C)[C@@H](C)O` has a selectivity ratio of 0.97 ± 0.53 (H1819; phage binding; 10 min, 37 °C; reference: control phage).
With `CC(C)C12OC1C1OC13C1(C)CCC4=C(COC4=O)C1CC1OC13C2OC(=O)CCCOC1OC(CO)C(O)C(O)C1O` (stereo not drawn) the IC50 was 5 µM (BXPC-3; cell growth or viability, XTT; 47 h).

Excerpt of the above:
`CC[C@H](C)[C@H](NC(=O)CNC(=O)[C@H](CC(=O)O)NC(=O)[C@H](CO)NC(=O)[C@@H](N)Cc1c[nH]cn1)C(=O)N[C@@H](Cc1ccccc1)C(=O)N[C@H](C(=O)N[C@@H](CC(=O)O)C(=O)N[C@@H](CO)C(=O)N[C@@H](Cc1ccc(O)cc1)C(=O)N[C@@H](CO)C(=O)N[C@@H](CCCNC(=N)N)C(=O)N[C@@H](Cc1ccc(O)cc1)C(=O)N[C@@H](CCCNC(=N)N)C(=O)N[C@@H](CCCCN)C(=O)N[C@@H](CCC(N)=O)C(=O)N[C@@H](CCSC)C(=O)N[C@@H](C)C(=O)N[C@H](C(=O)N[C@@H](CCCCN)C(=O)N[C@@H](CCCCN)C(=O)N[C@@H](Cc1ccc(O)cc1)C(=O)N[C@@H](CC(C)C)C(=O)N[C@@H](C)C(=O)N[C@@H](C)C(=O)N[C@H](C(=O)N[C@@H](CC(C)C)C(=O)NCC(=O)N[C@@H](CCCCN)C(=O)N[C@@H](CCCNC(=N)N)C(=O)N[C@@H](Cc1ccc(O)cc1)C(=O)N[C@@H](CCCCN)C(=O)N[C@@H](CCC(N)=O)C(=O)N[C@@H](CCCNC(=N)N)C(=O)N[C@H](C(=O)N[C@@H](CCCCN)C(=O)N[C@@H](CC(N)=O)C(=O)N[C@@H](CCCCN)C(N)=O)C(C)C)C(C)C)C(C)C)[C@@H](C)O` has an EC50 of 0.01 µM (BON; cell growth, MTT; 20 h).
